Measurements pooled from the literature.
Protocols differ between the studies behind these lines. Values joined by “and” are separate records of one study, mostly repeats; a detail may differ. ± marks the error that the study gave.

SMILES | assay | test system | setting | scale | endpoint | result
[123I]c1ccc2nc(-c3ccc(-n4ccnn4)nc3)cn2c1 |  | male Wistar rat, kidney | intravenous, 4 MBq, 1 h |  | tracer uptake | 0.714 %ID/g
CCCCN1C(=O)c2cccc3c(NCCCCCCN4CCOCC4)ccc(c23)C1=O |  | chloroform |  |  | fluorescence quantum yield | 1.17
COc1ccc(C(N)=O)cn1 |  | Han Wistar rats, male, plasma | oral, 30 mg/kg, 1.50 h |  | plasma concentration | 60.9 µM
O=C1c2sc(-c3ccc(N4CCC(CO)CC4)nc3F)nc2CCN1c1cccnc1 |  | CD1 mouse, plasma | i.v., dose not given, 0.083 h |  | concentration | 875 ng/mL and 617 ng/mL and 585 ng/mL
COc1cccc(OC)c1-c1cc(C(=O)NC2(C(=O)O)C3CC4CC(C3)CC2C4)nn1-c1ccc(C(=O)NCCNC(=O)[C@H](CCCCNC(=O)[C@H](CC(C)C)NC(=O)C2OC2C(=O)O)NC(=O)CN2CCN(CC(=O)[O-])CCN(CC(=O)[O-])CCN(CC(=O)[O-])CC2)cc1C(C)C.[177Lu+3] (mixture of isomers) |  | mouse HT-29 xenograft | 72 h, biodistribution | reference: tumour over stomach | tumour-to-stomach ratio | 43.6
CCCCCCCCCCCCCCCC(=O)N[C@@H](CCCCN)C(=O)N[C@@H](CCCCN)C(=O)N[C@@H](CO)C(=O)N[C@@H](CCCNC(=N)N)C(=O)N[C@@H](C)C(=O)N[C@@H](CC(C)C)C(=O)N[C@@H](Cc1ccccc1)C(N)=O |  | human patients, plasma | intravenous, 0.3 mg/kg over 2 h |  | terminal half-life | 1.2 h
[11CH3]N1CCC(NC(=O)c2cc(-c3c(O)cc(O)cc3Oc3ccc([N+](=O)[O-])cc3)on2)CC1 |  | healthy female Wistar rats, kidneys | intravenous, 30 min |  | standardized uptake value | 5.8 ± 0.5 g/mL
CC(C)(O)c1ncc([S@](N)(=O)=NC(=O)Nc2c3c(cc4c2CCC4)CCC3)s1 | measured: vascular disorders | healthy human | oral, 100 mg, CS formulation, fasted |  | subjects with TEAEs | 40%
O=C(NS(=O)(=O)c1cccs1)c1cc2ccccc2n1Cc1ccc(Br)c2ccccc12 |  | KM mouse, chronic hyperuricaemia model | dose not given, day 16 |  | body weight | 33.2 g and 31.2 g and 36.6 g and 38 g and 35.2 g and 30.2 g
O=C1c2sc(-c3ccc(N4CCC(F)C4)nc3F)nc2CCN1c1cccnc1 (centres unmarked) |  | CD1 mouse, plasma | i.v., dose not given, 0.083 h |  | concentration | 230 ng/mL and 399 ng/mL and 269 ng/mL
CCCCN1C(=O)c2cccc3c(NCCCN4CCOCC4)ccc(c23)C1=O |  | dichloromethane |  |  | Stokes shift | 74 nm
Cc1ccccc1Nc1ncnc2[nH]c(/C=C/c3ccccc3)nc12 | HPLC | solution | after 1 h light exposure |  | purity | 82%
C=C(NC(=O)c1csc(-c2nc3c(cc2O)-c2nc(cs2)C(=O)NC(C(C)O)C(=O)NC(=C(C)OC)c2nc(cs2)C(=O)NC2c4nc(cs4)C(=O)NC(COC(=O)c4c5c6c(cccc6n4O)COC(=O)C(OC4CC(C)(O)C(N(C)C)C(C)O4)C2OC5)c2nc-3cs2)n1)C(N)=O (centres unmarked) |  | ICR mice, Streptococcus pneumoniae ATCC 49169 infected, immunocompromised, blood | intravenous, 8 mg/kg/day three times daily |  | AUC(0-t) | 873 ng·h/mL
CC(C)(C)C(=O)Nc1ccc2[nH]c(CN3CCC(N(CCCN4CCOCC4)CC4OC(n5cnc6c(N)ncnc65)C(O)C4O)CC3)nc2c1 (centres unmarked) |  | male Sprague-Dawley rat, plasma | intravenous, 20 mg/kg, 6 h |  | concentration | 7 ng/mL
CCCCN1C(=O)c2cccc3c(NCCCCCCCCCCN4CCOCC4)ccc(c23)C1=O |  | ethyl acetate |  |  | Stokes shift | 84 nm
Cc1cc(-c2ccc(C(=O)[C@@H]3CCCC[C@H]3C(=O)Nc3cnn4c3C(=O)NCC4)cc2)[nH]n1 |  | human, urine | oral, 200 mg, 0-120 h | reference: dose | cumulative recovery of radioactivity | 5.87%

SMILES | assay | test system | setting | scale | endpoint | result
CCCCN1C(=O)c2cccc3c(NCCCCN4CCOCC4)ccc(c23)C1=O |  | toluene |  |  | Stokes shift | 74 nm
N#C[C@@H]1CC(F)(F)CN1C(=O)CNC(=O)c1ccnc2c(NC(=O)CCOCCOCCOCCOCCOCCOCCNC(=O)[C@H](CCCCNC(=O)CN3CCN(CC(=O)[O-])CCN(CC(=O)[O-])CCN(CC(=O)[O-])CC3)NC(=O)CCCc3ccc(I)cc3)cccc12.[177Lu+3] |  | human serum | 1 h, 37 °C, 177Lu-labelled |  | radiochemical stability | 99.08 ± 0.8%
C[C@@H](Nc1nc2c(cnn2C(C)(C)C)c(=O)n1Cc1cccc(F)c1)c1ccc(Cl)cc1 |  | C57BL/6J mouse | intravenous, 2.5 mg/kg |  | Vss | 18.9 ± 2.93 L/kg
Cn1cnc([N+](=O)[O-])c1Sc1ccccc1C(=O)NCCC(N)=O | LC-MS/MS | CD-1 mouse, CD-1 mouse blood | 1 µM, 120 min |  | remaining compound | 4.21%
CC(C)C[C@H](NC(=O)[C@H](CCCN)NC(=O)CNC(=O)[C@@H](NC(=O)[C@H](C)NC(=O)[C@@H]1CSCSC[C@H](NC(=O)CC[C@H](N)C(=O)O)C(=O)N[C@@H](CC(N)=O)C(=O)N[C@@H]([C@@H](C)O)C(=O)N[C@@H](C)C(=O)N[C@@H]([C@@H](C)O)C(=O)N1)[C@@H](C)O)C(=O)N[C@@H](C)C(=O)N[C@@H](CCC(=O)O)C(=O)N[C@@](C)(Cc1ccccc1)C(=O)N[C@@H](CC(C)C)C(=O)N[C@H](C(=O)N[C@@H](CCCNC(=N)N)C(=O)N[C@@H](CO)C(=O)N[C@@H](CO)C(=O)N[C@@H](CC(N)=O)C(=O)N(C)[C@@H](CC(N)=O)C(=O)N[C@@H](Cc1ccccc1)C(=O)NCC(=O)N1CCC[C@H]1C(=O)N[C@@H](CCCCNC(=O)CC[C@H](NC(=O)CC[C@H](NC(=O)CCCCCCCCCCCCCCCCCCC(=O)O)C(=O)O)C(=O)O)C(=O)N[C@@H](CC(C)C)C(=O)N1CCC[C@H]1C(=O)N1CCC[C@H]1C(=O)N[C@H](C(=O)N[C@@H](CCC(=O)O)C(=O)N[C@H](C(=O)NCC(=O)N[C@@H](CO)C(=O)N[C@@H](CC(N)=O)C(=O)N[C@H](C(=O)N[C@@H](Cc1ccc(O)cc1)C(N)=O)[C@@H](C)O)C(C)C)[C@@H](C)O)C(C)C | conditioned taste avoidance | lean male Sprague-Dawley rat | subcutaneous, 72 h |  | ED50 | 8.9 nmol/kg
CCCN(C)c1cc(C(F)(F)F)nc(SCCC(=O)NCc2ccco2)n1 |  | Wistar rat, plasma | intraperitoneal, 25 mg/kg, 2 h post-dose | reference: vehicle control | plasma AST | no effect
OCC1OC(n2cnc3c(NCc4ccc(Br)s4)ncnc32)C(O)C1O (centres unmarked) | equilibrium dialysis | mouse plasma | 5 µg/mL, 4 h, pH 7.4 |  | fraction unbound | 0.066
COc1cccc(OC)c1-c1cc(C(=O)NC2(C(=O)O)C3CC4CC(C3)CC2C4)nn1-c1ccc(C(=O)N(C)CCOCCOCCN(C)C(=O)[C@H](CCCCNC(=O)[C@H](CC(C)C)NC(=O)C2OC2C(=O)O)NC(=O)CN2CCN(CC(=O)[O-])CCN(CC(=O)[O-])CCN(CC(=O)[O-])CC2)cc1C(C)C.[177Lu+3] (mixture of isomers) |  | mouse HT-29 xenograft | 24 h, biodistribution | reference: tumour over stomach | tumour-to-stomach ratio | 19.8
O=C(Nc1cnccc1-c1ccc([18F])nc1)c1ccnc(NC(=O)C2CC2)c1 |  | FVB/NJ mice (both sexes), stomach | intravenous, dose not given, 120 min |  | SUV | 0.593
CC(C)[C@H](NC(=O)[C@H](Cc1c[nH]c2ccccc12)NC(=O)[C@H](CCCNC(=N)N)NC(=O)[C@H](CCCNC(=N)N)NC(=O)[C@@H](NC(=O)[C@@H](NC(=O)[C@H](CCCNC(=N)N)NC(=O)[C@@H](NC(=O)[C@@H](NC(=O)[C@H](CCCNC(=N)N)NC(=O)[C@H](CCCNC(=N)N)NC(=O)[C@@H](NC(=O)[C@H](Cc1c[nH]c2ccccc12)NC(=O)[C@H](CCCNC(=N)N)NC(=O)[C@H](CCCNC(=N)N)NC(=O)[C@@H](NC(=O)[C@H](CCCNC(=N)N)NC(=O)[C@H](CCCNC(=N)N)NC(=O)[C@@H](NC(=O)[C@H](Cc1c[nH]c2ccccc12)NC(=O)[C@H](CCCNC(=N)N)NC(=O)[C@@H](N)CCCNC(=N)N)C(C)C)C(C)C)C(C)C)C(C)C)C(C)C)C(C)C)C(C)C)C(=O)N[C@@H](CCCNC(=N)N)C(=O)N[C@@H](CCCNC(=N)N)C(=O)O |  | CD1 mouse, urine | intravenous, 15 mg/kg, 16 h, [14C]-labelled compound |  | sodium excretion | < 22.9 µmol/day/g body weight
CN(Cc1cc(C2CC2)on1)C(=O)c1cccc(-c2ccc(F)cc2)c1 |  | male ICR/CD-1 mouse, liver microsomes | 2 µM, 120 min, pH 7.5, without ABT |  | remaining compound | 15.1%
CC(C)Cc1ccc(C(C)C(=O)NC(CCCCNC(=O)CCOCCOCCOCCOCCOCCOCCNC(=O)CN2CCN(CC(=O)[O-])CCN(CC(=O)[O-])CCN(CC(=O)[O-])CC2)C(=O)Nc2cccc3c(C(=O)NCC(=O)N4CC(F)(F)C[C@H]4C#N)ccnc23)cc1.[68Ga+3] (some centres unmarked) |  | PBS | 120 min, 37 °C, 68Ga-labelled |  | radiochemical stability | 99.5 ± 1%
CN(O)C(=O)CCC(=O)NCCCN(CCCCN(CCCNC(=O)CCC(=O)N(C)O)C(=O)CCC(=O)N(C)O)C(=O)CCC(=O)N(C)O.[89Zr] | radio-TLC | aqueous buffer | 1 d, pH 8.5, 37 °C, 89Zr-labelled complex, added: DTPA 1000-fold excess |  | intact complex | 99.3 ± 0.5%
C=CC(=O)Nc1cccc(Cn2ncc3cnc(Nc4cnn(CCOC)c4)nc32)c1 |  | mouse, CD-1, both sexes, whole blood | 5 µM, 60 min |  | remaining compound | 43.9%
C=CC(=O)Nc1cc(Nc2nccc(-c3c[nH]c4ccccc34)n2)c(OC)cc1N(C)CCN(C)C | storage stability | human plasma | 30 d, on ice, LQC level |  | recovery | 51.1%
COCC1CN(C2CCN(c3cc(OC)c(Nc4ncc(Br)c(Nc5ccc6c(c5P(C)(C)=O)OCCO6)n4)cc3C)CC2)C1 |  | EGFR-mutant NSCLC patients, plasma | oral, 10 mg single dose, geometric mean |  | AUC(0-t) | 521 ng·h/mL

Some of these lines once more:
SMILES | assay | test system | setting | scale | endpoint | result
O=C(Nc1cnccc1-c1ccc([18F])nc1)c1ccnc(NC(=O)C2CC2)c1 |  | FVB/NJ mice (both sexes), stomach | intravenous, dose not given, 120 min |  | SUV | 0.593
CCCCN1C(=O)c2cccc3c(NCCCCN4CCOCC4)ccc(c23)C1=O |  | toluene |  |  | Stokes shift | 74 nm
O=C1c2sc(-c3ccc(N4CCC(F)C4)nc3F)nc2CCN1c1cccnc1 (centres unmarked) |  | CD1 mouse, plasma | i.v., dose not given, 0.083 h |  | concentration | 230 ng/mL and 399 ng/mL and 269 ng/mL
CCCCCCCCCCCCCCCC(=O)N[C@@H](CCCCN)C(=O)N[C@@H](CCCCN)C(=O)N[C@@H](CO)C(=O)N[C@@H](CCCNC(=N)N)C(=O)N[C@@H](C)C(=O)N[C@@H](CC(C)C)C(=O)N[C@@H](Cc1ccccc1)C(N)=O |  | human patients, plasma | intravenous, 0.3 mg/kg over 2 h |  | terminal half-life | 1.2 h
Cn1cnc([N+](=O)[O-])c1Sc1ccccc1C(=O)NCCC(N)=O | LC-MS/MS | CD-1 mouse, CD-1 mouse blood | 1 µM, 120 min |  | remaining compound | 4.21%
